Published values pooled from the literature.
A part holds a random share of what one study measured. Substitutions count along the parent as printed.

Study 1
Target: ABI1, truncated, D143A, DHFR fusion (Arabidopsis thaliana)
Technique: DHFR PCA, deep sequencing
Sample: yeast
Setting: methotrexate growth selection, single substitutions
Together with: (+)-ABA 17 µM
Reference: wild-type fitted maximum
Reading: higher = stronger binding
Parent: PYL1, truncated, DHFR fusion (Arabidopsis thaliana); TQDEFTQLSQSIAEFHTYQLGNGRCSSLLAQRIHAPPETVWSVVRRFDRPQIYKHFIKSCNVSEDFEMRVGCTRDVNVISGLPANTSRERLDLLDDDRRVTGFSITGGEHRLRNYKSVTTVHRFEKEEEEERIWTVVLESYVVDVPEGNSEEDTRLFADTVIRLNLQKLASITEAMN; partner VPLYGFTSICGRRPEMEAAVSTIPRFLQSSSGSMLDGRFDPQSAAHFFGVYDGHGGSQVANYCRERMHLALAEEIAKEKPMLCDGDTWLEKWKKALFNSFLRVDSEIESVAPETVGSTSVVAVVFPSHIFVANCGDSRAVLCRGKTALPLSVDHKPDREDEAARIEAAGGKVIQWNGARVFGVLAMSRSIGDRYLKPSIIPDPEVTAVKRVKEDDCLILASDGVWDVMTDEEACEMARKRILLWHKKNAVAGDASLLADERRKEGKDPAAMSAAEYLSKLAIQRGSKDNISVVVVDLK
| Change | relative binding score [%] |
| --- | --- |
| D97P | 39.9 |
| L169V | 2.56 |
| L8P | 5.73 |
| K54R | 17.9 |
| R111L | 45.9 |
| I105M | 29.8 |
| R24D | 34.7 |
| R111T | -2.71 |
| P146N | 13 |
| N149S | 77.4 |
| Q7F | 84.5 |
| R88I | 95.3 |
| S87D | 8.9 |
| N165F | -9.91 |
| N61V | 90.5 |
| G107I | 1.78 |

Study 2
Target: Ras GTPase-activating protein-binding protein 1, full length (G3BP1, Homo sapiens, UniProt Q13283)
UniProt Q13283, sequence (whole entry, looked up): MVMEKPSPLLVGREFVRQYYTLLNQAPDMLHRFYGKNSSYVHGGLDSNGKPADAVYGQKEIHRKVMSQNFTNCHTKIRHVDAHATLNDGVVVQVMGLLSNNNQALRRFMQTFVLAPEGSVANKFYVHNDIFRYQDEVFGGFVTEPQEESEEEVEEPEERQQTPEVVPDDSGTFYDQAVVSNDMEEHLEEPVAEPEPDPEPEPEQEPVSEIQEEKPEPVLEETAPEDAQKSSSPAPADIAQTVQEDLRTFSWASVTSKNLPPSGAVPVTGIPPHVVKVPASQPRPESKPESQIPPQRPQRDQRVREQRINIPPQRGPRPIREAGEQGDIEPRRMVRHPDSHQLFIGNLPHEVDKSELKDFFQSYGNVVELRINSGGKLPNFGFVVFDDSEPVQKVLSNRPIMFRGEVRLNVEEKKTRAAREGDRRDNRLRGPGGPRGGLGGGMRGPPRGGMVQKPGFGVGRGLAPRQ
Technique: RNA Bind-n-Seq
Molecule type: RNA
Sample: in vitro
Concentration: 200 nM
Setting: whole 134-nt RNA, ends assumed
Together with: 150 mM LiCl
Reference: input library
Reading: higher = stronger binding
All molecules: 7-deaza-guanosine replaces G
All sequences stand within: GGGAGUUCUACAGUCCGACGAUC … UGGAAUUCUCGGGUGUCAAGG
| Strand | log2 enrichment |
| --- | --- |
| CACAGACAACACGCACCCACACAGACACAGAGGGAAGGGGUUGGGAUAAAGACAGGGUGCACAGCAGGGCGGGGUAGGACCCCAGCCCCU | 0.435 |
| UGGGAGGUGGAUUUUGUUUAUUUUUUUAGCUCAUUUCCAGGGGUGGUAAUUUUUUUUUAAUAUGUGUCAUGAAUAAAGUUGUUUUUGAAA | -0.284 |
| GCAGGAAGUAAAACCAAAUGGAAAUGCUUCGGAUAGUGGCAGGGGUGGGGGUUGCUAAGGAAAGGGUGGGAUGGGAGUGGGUAAAGAGUU | -0.211 |
| GCAGGAAGUAAAAACAAAUGGAAAUGCUUCGGAUAGUGGCAGGGGUGGGGGUUGCUAAGGAAAGGGUGGGGUGGGAGUGGGUAAAGAGUU | 0.308 |
| CUGUGCUACACAUCGUAUGUACCGAAUCGGAAAAAAAGGGGAAAAAAAGGAAAAAAAGGGGAAAGUAUUAUGUUACGCCGUUCGGAUCUG | -0.148 |
| CAAGUCCUGUGCUACACAUCGUAUGUACCGAAUCGGAAAAAGGUUUUUGGAAAGGAAAGUAUUAUGUUACGCCGUUCGGAUCUGCACUUC | -1.36 |
| UCCUCAAGUCCUGUGCUACACAUCGUAUGUACCGAAUCGGGCGGGCGGGCGGAAAGUAUUAUGUUACGCCGUUCGGAUCUGCACUUCCAG | 0.801 |
| CUGUGCUACACAUCGUAUGUACCGAAUCGGGGUUUUUGGGGAAAAAGGGGUUUUUUUGGGGAAAGUAUUAUGUUACGCCGUUCGGAUCUG | -0.379 |
| UGAAAAUGCUUUCAUGUUAAUUGUGUACACACAUUUCAUCUGUAUCCCUGUUUCUUUUCUCCCUACAGAAACAUAUGAGGAUUUUGAUAC | 0.651 |
| AAGUCCUGUGCUACACAUCGUAUGUACCGAAUCGGGGUGGGGAAAAAGGGGAGGGGAAAGUAUUAUGUUACGCCGUUCGGAUCUGCACUU | 0.497 |
| CACAGACAACACGCACCCACACAGACACAGAGGGAAGGGGUUGGGAUGUGGACAGGGUGCACAGCAGGGCGGGGUAGGACCCCAGCCCCU | -1.51 |

Study 3
Target: BATF3, bZIP domain (human)
Technique: DHFR protein complementation
Sample: yeast
Setting: single substitutions, most at no-binding floor
Reference: wild-type JUN-FOS pair
Reading: higher = stronger binding
Parent: JUN, bZIP domain (human); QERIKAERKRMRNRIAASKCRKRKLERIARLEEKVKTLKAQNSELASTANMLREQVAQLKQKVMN; partner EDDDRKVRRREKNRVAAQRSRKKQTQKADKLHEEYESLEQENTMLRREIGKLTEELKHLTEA
| Change | binding fitness |
| --- | --- |
| V56M | 0.135 natural log |
| E54R | 0.121 natural log |
| L38F | 0.0304 natural log |
| E33F | 0.106 natural log |
| S47Y | 0.187 natural log |
| A57T | 0.23 natural log |
| A40R | 0.211 natural log |
| S47T | 0.179 natural log |
| V56Q | -0.265 natural log |
| I28M | 0.232 natural log |
| I28N | 0.177 natural log |
| E33Q | 0.084 natural log |
| L38N | -0.221 natural log |
| A46Y | 0.109 natural log |
| A29E | 0.0759 natural log |
| I28S | 0.18 natural log |
| Q55K | 0.255 natural log |

Study 4
Target: CCNB1, cyclin fold, Cln2 fusion (human)
Technique: yeast growth competition, sequencing
Sample: yeast
Setting: weak parent motif
Reference: not given
Reading: higher = stronger binding
Parent: ASZ1 docking peptide (human); GFGFLLFICKLTF
| Change | normalised enrichment score |
| --- | --- |
| L5A | 0.36 |
| I8A | 0.3 |
| F4A | 0.327 |
| L6A | 0.572 |
| K10A | 0.646 |
| C9A | 0.856 |
| L11A | 0.377 |

Study 5
Target: Histone acetyltransferase KAT6A, both winged helices, GST fusion (KAT6A, Homo sapiens, UniProt Q92794, residues 1-181)
Technique: protein binding microarray
Molecule type: double-stranded DNA, one strand shown
Sample: in vitro
Concentration: not given
Setting: 8-mer, flanks averaged, mean of 2 arrays, mostly near background
Reference: not given
Reading: higher = stronger binding
Residues (chain): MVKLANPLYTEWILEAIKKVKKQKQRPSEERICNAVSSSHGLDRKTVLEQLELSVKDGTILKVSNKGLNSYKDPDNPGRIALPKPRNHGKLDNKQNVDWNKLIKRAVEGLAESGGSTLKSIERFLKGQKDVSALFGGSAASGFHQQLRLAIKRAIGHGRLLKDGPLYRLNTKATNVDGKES
| Strand | E-score |
| --- | --- |
| GAGATCGA | 0.00058 |
| AAGCGGAG | -0.0341 |
| AGACATGA | -0.109 |
| AATTCGCT | -0.0258 |
| ATAGGCCG | 0.172 |
| GAAGTTAC | -0.114 |
| AAACAGTA | -0.0471 |
| ATACGCGC | 0.304 |
| CACCCACA | -0.118 |
| AATATGCG | 0.0725 |
| CCCACTGC | -0.133 |
| AGACGCGC | 0.339 |
| CCTGCGCG | 0.296 |
| TCCAAAGA | -0.0775 |
| CGCTGGGA | 0.01 |
| GTATAGTA | 0.135 |

Study 6
Target: RNA binding protein fox-1 homolog 2, RRM domain, GST-SBP tag (RBFOX2, Homo sapiens, UniProt O43251-10, residues 100-194)
Technique: RNA Bind-n-Seq
Molecule type: RNA
Sample: in vitro
Concentration: 365 nM
Setting: natural RNA segment, single round, ends assumed
Reference: no-protein control
Reading: higher = stronger binding
All sequences stand within: GGGAGUUCUACAGUCCGACGAUC … UGGAAUUCUCGGGUGCCAA
Residues (chain): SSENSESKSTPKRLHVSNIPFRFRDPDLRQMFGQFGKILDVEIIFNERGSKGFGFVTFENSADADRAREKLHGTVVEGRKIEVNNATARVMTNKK
| Strand | RBNS enrichment (R) |
| --- | --- |
| ACCUCCCAGGCAUCUGAACAGGAUGACAUCAUCUUAUUAUAUCUUACUUUACACAUACGUGUAUGUACACACACACACACAAUACAAGACAUUUUUCCUGUUUUAGAAAA | 0.639 |
| UGUUUAAUAAGUGCCCAAAGAGCACGAACAUUUUUCAAAAAUACCUUGUGUUGUCCUUUGUCUUUUCUGUCUCAGAAUUUUGUACAUCUGGCUUAUUUUAAUGUGAUGAU | 0.407 |
| GUUGGUGGCCCUCUGUGCCCUAAGCAUAUGCACAUGGGGCACAUACACAGCUACAGAGUGAGAGUUGGUUUGGAUCCUCUUCAUUUCAUUUGUUUGCCUUUCUGUUAUUU | 1.79 |
| AGGGCAAGUUCUCAGUACAGCCACCUUUGGACCCUUCGCCUUUAUGGUUCCCCUGCCCUCUCCCAUCUUUGAUUGGCUUGGUAUUUGGAGCUUCUGUUAACAUUAUAGAG | 0.35 |
| UGGUUUGUGUUCUUCUUCAUAUUCUAAAACCAUUCCAUUUCCAAGCACUUUCAGUCCAAUAGGUGUAGGAAAUAGCGCUGUUUUUGUUGUGUGUGCAGGGAGGGCAGUUU | 0.738 |
| CACACAACACUAAGUGCCUAGACUUUAAAUAGAUCUAGCAAUUGGAAAGUUAGUAAGCCUAAGUUUUUACAUAAUUGCAUUCCUACAUUCUUGUAAAAUUUAAAUAGCUA | 0.508 |
| CUGCCUGCUUUCCUCAAGACGAGAGAGACCCCAGACUGUGUGUGGUUCAUUAGAGCAGUCUGGCCACUGGGGUGCCAGUUCGUUGGCCUUCCACGCUGAGGUACCCUCUG | 1.15 |
| UUACAUAAUUUAAUACAGAUUGAUGUUAAUACUUGUGUAUUUACAUAACCAUUUCCUUCUUGUCACUGAAAUAUAUGGACCUGAAUUUGUAUCCUGACUGAUUCAACCCA | 0.388 |
| ACUUCCACUUUUUUUUUUUCAAGUAUCUCUCUAAUAACUAAAUGCCACUUAUUUGCAUUCUCCUUGUGGAUUUUUUGUCACCUAAGGAAAUGCAUUUGAUGAGUGCUGGA | 1.9 |
| UUUUUUGAUUGUGUUUCGUAAGAGACAACAUGGCCUCCUAAGGUGCAAUCCUGCCGCUAUAGUGAGCUAAUGUCCUGAAUCCAAAGGCUUCAGAAAAUUGCUUUUGCCUU | 0.382 |
| AAGCUAAAGGACCUGCCUAGGAUUAUAAUAUUUGAAGAAUGAACUUUUAAAUUCUUGCAAUAACGAAACCCUGCCUCCUUGACUAUUUGAACUCAGUUCUCCAUCUAAAC | 0.321 |
| AUCAACUAUGUAGUUGAUUUUUUUUUGCCAGAAAUUAUAAGUAUUCUACAAUAAAUCUUUAAAUUUGAAAUUUUUUUUGUUUUAUUUGGGAAAAAAAUUGCAUCAUGCAG | 1.53 |

Some of these lines once more (study 2):
| Strand | log2 enrichment |
| --- | --- |
| CACAGACAACACGCACCCACACAGACACAGAGGGAAGGGGUUGGGAUAAAGACAGGGUGCACAGCAGGGCGGGGUAGGACCCCAGCCCCU | 0.435 |
| UGAAAAUGCUUUCAUGUUAAUUGUGUACACACAUUUCAUCUGUAUCCCUGUUUCUUUUCUCCCUACAGAAACAUAUGAGGAUUUUGAUAC | 0.651 |
| AAGUCCUGUGCUACACAUCGUAUGUACCGAAUCGGGGUGGGGAAAAAGGGGAGGGGAAAGUAUUAUGUUACGCCGUUCGGAUCUGCACUU | 0.497 |
| CACAGACAACACGCACCCACACAGACACAGAGGGAAGGGGUUGGGAUGUGGACAGGGUGCACAGCAGGGCGGGGUAGGACCCCAGCCCCU | -1.51 |
| GCAGGAAGUAAAAACAAAUGGAAAUGCUUCGGAUAGUGGCAGGGGUGGGGGUUGCUAAGGAAAGGGUGGGGUGGGAGUGGGUAAAGAGUU | 0.308 |
| GCAGGAAGUAAAACCAAAUGGAAAUGCUUCGGAUAGUGGCAGGGGUGGGGGUUGCUAAGGAAAGGGUGGGAUGGGAGUGGGUAAAGAGUU | -0.211 |
| UCCUCAAGUCCUGUGCUACACAUCGUAUGUACCGAAUCGGGCGGGCGGGCGGAAAGUAUUAUGUUACGCCGUUCGGAUCUGCACUUCCAG | 0.801 |
| CUGUGCUACACAUCGUAUGUACCGAAUCGGGGUUUUUGGGGAAAAAGGGGUUUUUUUGGGGAAAGUAUUAUGUUACGCCGUUCGGAUCUG | -0.379 |
| CAAGUCCUGUGCUACACAUCGUAUGUACCGAAUCGGAAAAAGGUUUUUGGAAAGGAAAGUAUUAUGUUACGCCGUUCGGAUCUGCACUUC | -1.36 |
| UGGGAGGUGGAUUUUGUUUAUUUUUUUAGCUCAUUUCCAGGGGUGGUAAUUUUUUUUUAAUAUGUGUCAUGAAUAAAGUUGUUUUUGAAA | -0.284 |
